# Results collected from several papers.
# Every numbered part comes from another study and shows a few of its results, in no order.

# Block 1 — technique: RNA Bind-n-Seq; form: RNA; sample: in vitro; concentration: not given; relative to: input RNA pool; direction: higher = stronger binding
# Target: RING finger protein unkempt homolog, zinc fingers 1-6, GST-SBP tag (UNK, Homo sapiens, UniProt Q9C0B0, residues 30-357)
# Chain of UniProt Q9C0B0 (30-357, looked up): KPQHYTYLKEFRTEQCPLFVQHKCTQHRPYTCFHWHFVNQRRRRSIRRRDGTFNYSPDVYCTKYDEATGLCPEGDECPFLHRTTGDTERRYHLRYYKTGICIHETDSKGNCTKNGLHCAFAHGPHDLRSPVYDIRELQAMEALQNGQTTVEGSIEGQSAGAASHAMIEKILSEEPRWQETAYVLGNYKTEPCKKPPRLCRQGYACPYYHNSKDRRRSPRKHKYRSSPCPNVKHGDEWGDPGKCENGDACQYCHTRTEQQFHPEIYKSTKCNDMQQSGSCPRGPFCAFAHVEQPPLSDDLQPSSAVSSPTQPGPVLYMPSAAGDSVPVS
# Setting: RNA with constant flanks, human and mouse sites, ends assumed
Sequence,bound/input enrichment [ratio]
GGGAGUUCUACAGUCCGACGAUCGGGUAGAUAGAGUAGUAUAUGUGGGGGUGGGAGGGUAUGGGAGUUUAAUUUGUAUAAACCACUGAUGUUCUGUGAAAUCGGAAUUUCCAGCUACAUUUCAUAUAGCUUCUGAAUAUUCAGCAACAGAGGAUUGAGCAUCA,92.2
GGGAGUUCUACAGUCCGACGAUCACUUGCUGUCUCUUAGAGGCUGAGCUUCAUUUCUAUGAGCAAAGAGCUCAUUUAGCAAUGUAGUUAUUUCAGUAUUUAUUUCUAUUAUGGAAUCCCUGGGGUUCAGAAUGUAACUUUGUACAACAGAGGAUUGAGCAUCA,7.33
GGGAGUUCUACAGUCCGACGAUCUAUGAUGAGCAUAUCAAAUCCAGAUUGAUUAAAGAUAUUCGGUUUUUCAGGGAGAUCAAGGACCAAAAUGACCACAAGUAUCCUUUUGAUAGAGCAGAAAAAUUCAAUCGUGGCAUAAGACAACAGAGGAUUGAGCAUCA,0.499
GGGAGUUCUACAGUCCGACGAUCGGCAUGCAUGUAUUACCAUGGAGGUAGCUCAUUGAUCUUUUAAGGUUCCUCAUAUAAUUUAAUGUCUUUAUCAAGAUUUUAAGAGAGCUCUUUACAUUCCUACUGGUUUGCUUGAGCUAUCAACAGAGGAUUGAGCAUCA,0.137
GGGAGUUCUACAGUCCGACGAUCCAGAGAGAGGCUGUGCUUGCAGCUUACUGGCGAGGCCAGUGCAUCAAAGAUGCCCACCUCCCGCCUGGAUCCAUGGCAGCUGUUGGUUUGUCCUGGGAGGAAUGUAAACAGCGCUGCCCCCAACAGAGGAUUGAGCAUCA,0.107
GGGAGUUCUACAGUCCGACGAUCCUCCUGCCGGGCGCCCGGCAGACCGAAGCGGCUCCAGUGUGCUGCUCUGCUCGGUACAACUUAGCGAUUUUGGCGUUCUGUGGUUUCUUCGUUCUCUAUGCCUUACGGGUGAACCUGAGUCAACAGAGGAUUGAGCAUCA,0.154
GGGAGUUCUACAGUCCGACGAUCGAAAAUGAGCAGACACUGAAUGUGAACCCCACUGACCCUGACAAUUUAAGCGACUCUCUCUUUUCUGGAGAUGAAGAAAAUGCUGGCACUGAAGAAAUAAAGAAUGAAAUAAAUGGAAAUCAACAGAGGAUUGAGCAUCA,0.339
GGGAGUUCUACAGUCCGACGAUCUGAACUAAAGGAGUUAGCAUCUUUAUUUUUGUAUCAAAGAUAAAGGUUAUUUUGAAAAUUAUUAGGGUUUUUACAUAACUCUGGAAUCUGUUGCUUUUAUAAACAAAUUGUUCAAUUUUACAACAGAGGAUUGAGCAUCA,17
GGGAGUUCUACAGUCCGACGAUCCGCGGAGGCCGGCCGGGGGACGGCGUCCUGCCCCGGGAGCAGCUGAUACUUUUAGGGACACUAGUAGACCUAUUGGGAGAUUCGGAACAAGAAUGUAGGAGUGGAAGCCUGUAUGUGAGGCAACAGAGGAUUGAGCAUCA,1.42
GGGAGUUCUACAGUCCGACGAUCCUUUAAUGUCUUUUUCCUGCUUAUAGGGAAAGUAUAAGUUUGGUUAAAAUGUCAUGUUUGUUGUCUUUCCAAAAACCUUUAUAAUUACAGAGGGCCUUCUUCAAUACUGCUGGUGUUGGACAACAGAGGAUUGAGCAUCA,0.295
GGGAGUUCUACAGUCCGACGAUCUCUUGUAGCCUUUGGUUUUUGUUAAUGUAGAGAAACACAGAUUCUUUAUACACUUUGUAAGAUUUACGCCAAACCCCAGCUCUCGAUCUCUUCUUCUCCCUGUGGCCCCUGCGCUGUUGCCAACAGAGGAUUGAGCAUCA,0.46

# Block 2 — technique: universal PBM; form: double-stranded DNA, one strand shown; sample: in vitro; concentration: 600 nM; direction: higher = stronger binding
# Target: Sal-like protein 4, full length isoform A (SALL4, Homo sapiens, UniProt Q9UJQ4, residues 1-1053)
# Chain of UniProt Q9UJQ4 (whole entry, looked up): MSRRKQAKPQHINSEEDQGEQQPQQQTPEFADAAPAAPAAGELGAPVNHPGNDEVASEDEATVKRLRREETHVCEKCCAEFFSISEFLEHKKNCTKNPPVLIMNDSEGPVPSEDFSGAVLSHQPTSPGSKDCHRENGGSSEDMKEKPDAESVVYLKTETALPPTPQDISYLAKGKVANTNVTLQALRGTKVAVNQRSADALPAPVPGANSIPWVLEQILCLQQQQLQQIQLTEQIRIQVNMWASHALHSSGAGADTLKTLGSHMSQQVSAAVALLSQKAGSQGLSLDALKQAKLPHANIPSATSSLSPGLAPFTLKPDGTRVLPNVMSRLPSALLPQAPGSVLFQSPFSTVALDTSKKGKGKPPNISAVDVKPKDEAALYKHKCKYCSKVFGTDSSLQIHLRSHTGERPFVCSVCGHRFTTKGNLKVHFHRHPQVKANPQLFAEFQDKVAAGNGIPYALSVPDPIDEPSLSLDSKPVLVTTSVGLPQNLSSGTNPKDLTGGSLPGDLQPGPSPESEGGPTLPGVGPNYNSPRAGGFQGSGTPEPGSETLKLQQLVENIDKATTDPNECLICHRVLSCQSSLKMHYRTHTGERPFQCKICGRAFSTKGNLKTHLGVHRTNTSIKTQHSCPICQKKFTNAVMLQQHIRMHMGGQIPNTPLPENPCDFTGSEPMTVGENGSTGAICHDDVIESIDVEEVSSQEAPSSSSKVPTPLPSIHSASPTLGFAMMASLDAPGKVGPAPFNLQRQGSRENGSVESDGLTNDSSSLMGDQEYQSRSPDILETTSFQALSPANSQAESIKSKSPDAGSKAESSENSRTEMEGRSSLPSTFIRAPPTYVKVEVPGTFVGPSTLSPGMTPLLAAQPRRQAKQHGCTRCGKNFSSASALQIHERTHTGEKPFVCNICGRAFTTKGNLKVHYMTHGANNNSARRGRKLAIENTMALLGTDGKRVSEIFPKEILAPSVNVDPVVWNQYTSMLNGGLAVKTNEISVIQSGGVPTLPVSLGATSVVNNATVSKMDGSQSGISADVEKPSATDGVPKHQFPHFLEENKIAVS
# Setting: 8-mer, flanks averaged, mean of replicates
Sequence,E-score
AATCTCGG,-0.102
AGACGGAT,-0.0101
GGAGTATA,0.0978
GTCAAGAC,-0.153
AACCTGTC,-0.0893
ACACAGAT,0.145
ATAGAGTC,-0.0324
AGCGGGAG,-0.19
CAAGGGGG,-0.204
CCTGAACA,0.0503
ATGGCAGA,-0.0131
GCGTACCA,-0.139
CAGAAGAC,-0.0413
GCCCGCCC,-0.36
TAGGCTGA,-0.0728
CTGTACAC,0.059
AGTTGCAC,-0.146
ACGGTAAT,0.143
CAATGCAA,0.115
ACAAGGGG,-0.147
CCCCCAAG,-0.234
AACGTCTC,-0.0291
ACCGATAA,0.249
TCCCTGCA,-0.188
CATCGATA,0.213

# Block 3 — technique: protein-binding microarray; form: double-stranded DNA, one strand shown; sample: in vitro; concentration: 2200 nM top; setting: 60-bp whole probe; with: salmon DNA 0.4 mg/ml; relative to: random background probes; direction: higher = stronger binding; constant ends, left off below: GCCTAGCAC … GTCTTGATTCGCTTGACGCTGCTG
# Target: Interferon regulatory factor 7, full length, phosphomimetic (IRF7, Homo sapiens, UniProt Q92985, residues 1-503, S471D/S472D/S475D/S476D/S477D/S483D/S484D/S487D)
# Residues (chain): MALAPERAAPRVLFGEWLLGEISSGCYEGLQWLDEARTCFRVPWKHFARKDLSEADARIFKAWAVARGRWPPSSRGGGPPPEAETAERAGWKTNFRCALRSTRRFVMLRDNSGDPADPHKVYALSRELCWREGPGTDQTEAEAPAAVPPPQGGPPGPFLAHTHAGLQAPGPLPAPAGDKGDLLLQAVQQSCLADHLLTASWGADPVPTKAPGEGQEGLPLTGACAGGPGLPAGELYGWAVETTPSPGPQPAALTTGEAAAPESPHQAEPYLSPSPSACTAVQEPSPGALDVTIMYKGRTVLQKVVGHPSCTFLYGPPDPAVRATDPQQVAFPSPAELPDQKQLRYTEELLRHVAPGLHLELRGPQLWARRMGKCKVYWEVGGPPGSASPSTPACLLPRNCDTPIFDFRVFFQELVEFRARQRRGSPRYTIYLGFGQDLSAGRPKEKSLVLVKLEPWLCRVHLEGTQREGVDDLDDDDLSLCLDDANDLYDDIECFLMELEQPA
Sequence,fitted relative affinity [z-score]
TTAGGTATCCTACTGCTTTTGTGCTAG,0.59
GACGATATCGGATATCGAGACGTGCTA,0.233
TCACTTCTCCCTTTCAGACTGTGCTAG,3.39
TTAGGTATCGGACTGGGTCAGTGCTAG,-0.146
TCACCTATCCAAGTTCCCACTGTGCTA,1.98
GTAGGTTTCGGTATCGGTTAGTGCTAG,7.46
GACGATATCAGCATCGAGACGTGCTAG,0.359
AGGTTGATGGCTCTCTGGACGTGCTAG,-0.127
GACATCCCCAGTCTCATATTGTGCTAG,1.07
GACGGTTTCGATTTCGGGACGTGCTAG,11.5
GACGATCTCAGTTTCCAGACGTGCTAG,1.61
TTAGATATCAGTTTCGATGAGTGCTAG,2.22
TTAGGTATCGGTTTGGGTTAGTGCTAG,2.71
TCAAGTGTTTTTCTCCTACTGTGCTAG,1.39
GACGAACTGAGTTCCGAGACGTGCTAG,0.0608
TTAGGTATCGGGTTTCCGTTAGTGCTA,1.49
TTAGGTATCGGTATCGGTTTGTGCTAG,2.16
CATTGCCTATTTTTCACCTGGTGCTAG,1.96
GACGTTTTCAGTATCGAGACGTGCTAG,2.37
GGGGGAAATGGGAAACCCGGGGTGCTA,0.557
GACGGTTTCGGTGCCGGGACGTGCTAG,3.05
TCATTTTTCCCTCTGGAAAAGTGCTAG,2.35
TTAGATTCCAGTTTCAATTAGTGCTAG,1.97
TATGCTTTCTTTAACTCATTGTGCTAG,1.48
CCACTGCAAAAACATCCTGGGTGCTAG,0.479

# Block 4 — technique: RNA Bind-n-Seq; form: RNA; sample: in vitro; concentration: 365 nM; relative to: no-protein control; direction: higher = stronger binding
# Target: RNA binding protein fox-1 homolog 2, RRM domain, GST-SBP tag (RBFOX2, Homo sapiens, UniProt O43251-10, residues 100-194)
# Setting: natural RNA segment, single round, ends assumed
# Target sequence (chain): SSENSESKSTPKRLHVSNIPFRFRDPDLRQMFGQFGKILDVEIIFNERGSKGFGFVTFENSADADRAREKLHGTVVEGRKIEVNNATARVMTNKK
Sequence,RBNS enrichment (R)
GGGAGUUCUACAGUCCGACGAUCGGUAGUAGUGAAAAUCAGGUUUGCUGUGUUCUGCUUUGAGGCCUGGAAUCUUUUAUCAUUAAACACCUAGUACGAAGCAUUUGCAGGAACCUACUGUGCAGUAUCAUAGAUGGAAUUCUCGGGUGCCAA,0.45
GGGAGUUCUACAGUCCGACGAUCAGUGCCAAUCUCUCUAGGACCCUUAUAGCUCCCCACUCCCCCCAAAUCAAGUCCCAUGCUCCAAUCUCACCCCUGUCCAGGAUAGGAGCAAACUCAACCAAGAACUGCUCUGGAAUUCUCGGGUGCCAA,0.559
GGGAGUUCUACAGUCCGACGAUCAGUUACACACUCAGUAAACACUGGUUAUCAGUCAUUGGAAAGGUUACCUGUGCAACCACCAGAUUCCAUUUCUACUUCUCUUCCCCAGAGGUCUCAGCAAUGAAUCGGGAUGGAAUUCUCGGGUGCCAA,0.291
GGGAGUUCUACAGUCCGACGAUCUACAAUUUAUUUUCCUUUAACUCUUCUAUGAUAUUUAAAGCGUGCAUCUGCCACAUUGAUGAUUAAAUUAGCAGUUUAGAUAACUUGAGUCCCUUUCCCUUUAUAUUUGAUGGAAUUCUCGGGUGCCAA,0.904
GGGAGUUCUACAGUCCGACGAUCACCCUGGGGGUGUAUUAUAUAUAGUGUAUAUUUUUUCAAUGUUGUCGUGAGCGCAGCUCCUGUGUUUCUGUGUGCAGCUCACAGCCUUGUAUGUGUGCGUGUGCGUGGCAUGGAAUUCUCGGGUGCCAA,4.41
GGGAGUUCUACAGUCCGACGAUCCUAACAGUUACUCUGAAGAUGUGUCAUGAUUUGUGAGCCUUUGGAUCUGGGUAAAUAGAGGACAAAACUAAUUCUUUGAGGCUUUAACUUGGGCACUUGCCUUGAUUCCUUGGAAUUCUCGGGUGCCAA,0.719
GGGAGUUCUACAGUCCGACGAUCAGACUUGUGUGAAUGUACAAAGGUUUGCAUUGUAGCUGUUAGAACAGCACAGCAGGGAGUACACGAACUGAUAGAGACCUGUGCUCAGCAGCCAGGUUCUUCAGGUGCUUUGGAAUUCUCGGGUGCCAA,0.384
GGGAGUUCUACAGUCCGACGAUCCCUUUUUUUGACACCUGCGCUAGGUUCUUGUAUGCUGGCUUUUCUUAAAGGAACAGCAGAGUAGAAAAGAGGUUGAGAAUGUUUUCUAGCAGGCAGAAUGUGCAUACAUGUGGAAUUCUCGGGUGCCAA,2.63
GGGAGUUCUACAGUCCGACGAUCGUCCCCUGUUGUCGGUGAUUUGUUUGUCUUUCUGAUAGGUUGAAAAUUGUGUAAUAAACUUGAUGACGAUGUCAAUCUUUUAUACUGCAUUGUAUUUUUUUCCUUUUGUAUGGAAUUCUCGGGUGCCAA,0.596
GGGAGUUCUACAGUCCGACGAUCUGACUUAUCAGUGCCCAUCACUAUCUGGCGUUCUGAAAGUCCCAUAGAAAAGUGUCAGGAAAGCAACGUCAUCAAGGAUAUAAAGAGAAAGGAGAAAGAGCAAGAUGAGGUGGAAUUCUCGGGUGCCAA,0.715
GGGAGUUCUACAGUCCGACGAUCAGAAUAAAAUGAGAAUUCUUCAGUUAUAUUUUGUACUAUGGUUUAGGGCUAUGACUAAUAUUUCAGGCCAUUUCCGGUGAAAGAAACUUAGUUUUACAAGAAAAACCAUUUGGAAUUCUCGGGUGCCAA,0.538
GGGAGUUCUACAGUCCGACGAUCGUAACCUUGGAAGCUGACCAAAACCUGUUUCUACUGAGAAGACAGAUACAUCCUUACCCCUAGAAGGGAAUUCCUCCACCAGGAAAGGGCUCACCACCCAUCUGCACAAGUGGAAUUCUCGGGUGCCAA,0.44

# Some of these lines once more (block 2):
Sequence,E-score
AGCGGGAG,-0.19
CAAGGGGG,-0.204
CCTGAACA,0.0503
ATGGCAGA,-0.0131
GCGTACCA,-0.139
CAGAAGAC,-0.0413
GCCCGCCC,-0.36
TAGGCTGA,-0.0728
CTGTACAC,0.059
